Measured values of several laboratories.
Every numbered part comes from another study and shows a few of its results, in no order. Several values in a cell are separate wells, animals, samples, runs or records.

Block 1 — host: female CD-1 mouse; medium: plasma; route: intravenous; dose: 1 mg/kg; measurement: clearance
Cc1ccc(O)c(C)c1-c1cnc2[nH]c(-c3cnc(N4CCC(CN5CCN(c6ccc7c(c6)CN(C6CCC(=O)NC6=O)C7=O)CC5)CC4)nc3)cc2c1C#N (centres unmarked): 21.7 mL/min/kg
Cc1ccc(O)c(C)c1-c1cnc2[nH]c(-c3cnc(N4CCC(CN5CCN(c6ccc7c(c6F)CN(C6CCC(=O)NC6=O)C7=O)CC5)CC4)nc3)cc2c1C#N (centres unmarked): 23.8 mL/min/kg
Cc1ccc(O)c(C)c1-c1cnc2[nH]c(-c3cnc(N4CCC(CN5CCN(c6ccc7c(c6)C(=O)N(C6CCC(=O)NC6=O)C7=O)CC5)CC4)nc3)cc2c1C#N (centres unmarked): 40.7 mL/min/kg
Cc1ccc(O)c(C)c1-c1cnc2[nH]c(-c3cnc(N4CCC5(CC4)CC(N4CCN(c6ccc(N[C@H]7CCC(=O)NC7=O)cc6F)CC4)CO5)nc3)cc2c1C#N (single isomer, unassigned): 80.2 mL/min/kg
Cc1ccc(O)c(C)c1-c1cnc2[nH]c(-c3cnc(N4CCC(CCN5CCN(c6ccc(NC7CCC(=O)NC7=O)cc6F)CC5)CC4)nc3)cc2c1C#N (centres unmarked): 40.6 mL/min/kg
Cc1ccc(O)c(C)c1-c1cnc2[nH]c(-c3cnc(N4CCC(CN5CCN(c6ccc(NC7CCC(=O)NC7=O)cc6F)CC5)CC4)nc3)cc2c1C#N (centres unmarked): 31.9 mL/min/kg
Cc1ccc(O)c(C)c1-c1cnc2[nH]c(-c3cnc(N4CCC(CN5CCN(c6cc7c(cc6F)c(N6CCC(=O)NC6=O)nn7C)CC5)CC4)nc3)cc2c1C#N: 30.7 mL/min/kg

Block 2 — organism: Arabidopsis thaliana; strain: Col-0; measurement: hypocotyl length
Structure (SMILES): CCCN1C(=O)C(O)(C(=O)O)Oc2cc(F)ccc21 (centres unmarked)
100 µg/mL, seed germination, single repetition: 0.77 cm and 0.74 cm and 0.78 cm and 0.75 cm and 0.76 cm
50 µg/mL, seed germination, repetition mean: 1.26 cm
3.125 µg/mL, seed germination, repetition mean: 2.29 cm
50 µg/mL, seed germination, single repetition: 1.28 cm and 1.25 cm and 1.3 cm and 1.27 cm and 1.24 cm
12.5 µg/mL, seed germination, repetition mean: 1.87 cm
100 µg/mL, seed germination, repetition mean: 0.752 cm
6.25 µg/mL, seed germination, repetition mean: 2.15 cm
6.25 µg/mL, seed germination, single repetition: 2.15 cm and 2.1 cm and 2.23 cm and 2.14 cm
25 µg/mL, seed germination, repetition mean: 1.72 cm

Block 3 — cell line: AsPC-1; technique: in-cell ELISA; measurement: phospho-ERK1/2 level
Structure (SMILES): Cc1ncsc1-c1ccc(C2(NC(=O)C3CC(O)CN3C(=O)C(NC(=O)c3ccc(COc4c(-c5c(C)c(F)cc6[nH]ncc56)c(C5CC5)cc5c(N6CC7CC6CN7)nc(OC6CCOCC6)nc45)cc3)C(C)(C)C)CC2)cc1 (centres unmarked)
300 nM, individual replicates: 59.2% and 96.9% and 63.2% and 93.9% and 57.7% and 92.8%
300 pM, per-experiment values: 92.4% and 100% and 103%
1 nM, individual replicates: 100% and 94.8% and 96.3% and 103% and 98.5%
30 nM, per-experiment values: 95% and 105% and 99.3%
10 nM, individual replicates: 109% and 88.8% and 104% and 101%
10 µM, per-experiment values: 13.3% and 15.2% and 10.1%

Block 4 — cell line: U-87 MG; concentration: concentration not given; reference: DMSO; measurement: log2 fold change
Compound: CCN1/C(=C/C=C2\CCCC(/C=C/C3=[N+](CC)c4ccccc4C3(C)C)=C2NCCCCCCCCN2CCC(Nc3nc4ccccc4n3Cc3ccc(F)cc3)CC2)C(C)(C)c2ccccc21
measured: PCDHB14 mRNA: -1.2
measured: SKIL mRNA: 0.809
measured: DSN1 mRNA: -1.21
measured: JADE1 mRNA: -1.29
measured: TENM2 mRNA: -2.95
measured: ZCCHC7 mRNA: 1.21
measured: DNAJB1 mRNA: 2.3
measured: B3GALT4 mRNA: -2.11
measured: CRISPLD1 mRNA: -2.16
measured: PLEKHG4 mRNA: -3.48
measured: GAS6 mRNA: -1.21
measured: UNC5B mRNA: 1.66
measured: PTK7 mRNA: -1.44
measured: PITX1 mRNA: -1.11
measured: IL17RC mRNA: -0.941
measured: ITPRIPL1 mRNA: -1.23

Excerpt of the above (block 2):
3.125 µg/mL, seed germination, repetition mean: 2.29 cm
50 µg/mL, seed germination, single repetition: 1.28 cm and 1.25 cm and 1.3 cm and 1.27 cm and 1.24 cm
12.5 µg/mL, seed germination, repetition mean: 1.87 cm
100 µg/mL, seed germination, repetition mean: 0.752 cm
